Results pooled from the literature.
Parts stem from different laboratories: compare values within a part only. Changes are numbered by the printed parent chain.

Study 1 — technique: protein binding microarray; molecule type: double-stranded DNA, one strand shown; medium: in vitro; tested at: not given; baseline: not given; direction: higher = stronger binding
Target: Histone acetyltransferase KAT6A, winged helix 2, GST fusion (KAT6A, Homo sapiens, UniProt Q92794, residues 85-181)
Notes: 8-mer, flanks averaged, mean of 2 arrays, mostly near background
Residues (chain): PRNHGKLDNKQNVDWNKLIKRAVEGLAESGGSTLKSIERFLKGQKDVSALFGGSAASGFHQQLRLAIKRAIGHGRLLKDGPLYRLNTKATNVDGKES
Sequence | E-score
ATCTCGTC | -0.00292
ATTATCGA | -0.129
ATAATTGA | -0.0891
GACGCGTA | -0.0382
CCGTCCAG | 0.0326
CCCTGCAA | 0.0148
GTGGTCAA | -0.214
AAAGTGAC | -0.0992
TTACCCAA | -0.181
AGCAGTCG | -0.000725
ACTTTCAA | 0.134
ATCTAGGA | -0.105
CAATGACA | -0.111
AGGCGGTG | 0.163
GCAAACGA | 0.195
ATCTGAAT | -0.0147
CGAGGTAG | -0.0853
CAAATGGA | 0.00451
CACTCCCC | 0.0104
TAACACTA | 0.0848
AGTGACGA | 0.0866
CTATGCGA | -0.0631
CTCCCTCA | -0.0728
ACCGAAAG | 0.025
GACCCTAA | 0.0665

Study 2 — technique: protein-binding microarray; molecule type: double-stranded DNA, one strand shown; medium: in vitro; tested at: 2540 nM top; notes: 60-bp whole probe; added: salmon DNA 0.4 mg/ml; baseline: random background probes; direction: higher = stronger binding; shared flanks, not repeated: GCCTAGCAC … GTCTTGATTCGCTTGACGCTGCTG
Target: Interferon regulatory factor 3, full length, phosphomimetic (IRF3, Homo sapiens, UniProt Q14653, residues 1-427, S386D/S396D/S398D/S402D/T404D/S405D)
Residues (chain): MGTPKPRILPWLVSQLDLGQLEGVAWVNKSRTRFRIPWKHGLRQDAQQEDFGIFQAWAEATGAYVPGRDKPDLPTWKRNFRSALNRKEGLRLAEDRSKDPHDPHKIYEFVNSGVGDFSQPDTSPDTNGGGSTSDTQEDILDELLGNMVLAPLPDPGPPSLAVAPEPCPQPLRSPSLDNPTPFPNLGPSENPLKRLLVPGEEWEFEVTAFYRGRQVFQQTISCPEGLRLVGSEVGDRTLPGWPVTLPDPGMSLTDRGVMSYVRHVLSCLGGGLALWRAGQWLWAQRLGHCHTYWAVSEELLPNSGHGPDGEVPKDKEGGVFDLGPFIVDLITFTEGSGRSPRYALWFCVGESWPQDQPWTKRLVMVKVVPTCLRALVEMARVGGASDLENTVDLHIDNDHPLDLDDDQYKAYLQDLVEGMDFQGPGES
Sequence | fitted relative affinity
TTCATTTACATTTCCAATACGTGCTAG | 2.29 z-score
TAAGATATCAGTCTCGATTAGTGCTAG | 1.36 z-score
TTAGAACTGAGTTCCGATTAGTGCTAG | 1.2 z-score
TATGAAATGGAAGTTTAGGGGTGCTAG | -0.394 z-score
TCAGGTCTCCCTTGAGGTTTGTGCTAG | 0.719 z-score
GACGGTAGCCTTTTCCTGACGTGCTAG | 2.42 z-score
AACGATATCAGTTTCGAGACGTGCTAG | 3.47 z-score
TTAGAACTGGTGTTTCGATTAGTGCTA | 1.28 z-score
GACGATCTCAGTACCGAGACGTGCTAG | 0.624 z-score
AACACAAACCCGCTGGAGTTGTGCTAG | -0.0755 z-score
TTAGGTTTCGGGTATCGGCTAGTGCTA | 3.81 z-score
TTAGATATCAGGATCGATTAGTGCTAG | 0.73 z-score
GACGGAATCGGACTGGGGACGTGCTAG | 0.101 z-score
TCAAATTAGAATTTAAAACTGTGCTAG | 0.222 z-score
GACGCTTTCGGGACTGGAGACGTGCTA | 1.9 z-score
TTAGGACTGGGACTGGTTTAGTGCTAG | -0.886 z-score
TCAGGCTTAGTTTGTCAAACTGTGCTA | -0.321 z-score

Study 3 — technique: universal PBM; molecule type: double-stranded DNA, one strand shown; medium: in vitro; tested at: 600 nM; direction: higher = stronger binding
Target: Sal-like protein 4, full length isoform A (SALL4, Homo sapiens, UniProt Q9UJQ4, residues 1-1053)
Chain of UniProt Q9UJQ4 (whole entry, looked up): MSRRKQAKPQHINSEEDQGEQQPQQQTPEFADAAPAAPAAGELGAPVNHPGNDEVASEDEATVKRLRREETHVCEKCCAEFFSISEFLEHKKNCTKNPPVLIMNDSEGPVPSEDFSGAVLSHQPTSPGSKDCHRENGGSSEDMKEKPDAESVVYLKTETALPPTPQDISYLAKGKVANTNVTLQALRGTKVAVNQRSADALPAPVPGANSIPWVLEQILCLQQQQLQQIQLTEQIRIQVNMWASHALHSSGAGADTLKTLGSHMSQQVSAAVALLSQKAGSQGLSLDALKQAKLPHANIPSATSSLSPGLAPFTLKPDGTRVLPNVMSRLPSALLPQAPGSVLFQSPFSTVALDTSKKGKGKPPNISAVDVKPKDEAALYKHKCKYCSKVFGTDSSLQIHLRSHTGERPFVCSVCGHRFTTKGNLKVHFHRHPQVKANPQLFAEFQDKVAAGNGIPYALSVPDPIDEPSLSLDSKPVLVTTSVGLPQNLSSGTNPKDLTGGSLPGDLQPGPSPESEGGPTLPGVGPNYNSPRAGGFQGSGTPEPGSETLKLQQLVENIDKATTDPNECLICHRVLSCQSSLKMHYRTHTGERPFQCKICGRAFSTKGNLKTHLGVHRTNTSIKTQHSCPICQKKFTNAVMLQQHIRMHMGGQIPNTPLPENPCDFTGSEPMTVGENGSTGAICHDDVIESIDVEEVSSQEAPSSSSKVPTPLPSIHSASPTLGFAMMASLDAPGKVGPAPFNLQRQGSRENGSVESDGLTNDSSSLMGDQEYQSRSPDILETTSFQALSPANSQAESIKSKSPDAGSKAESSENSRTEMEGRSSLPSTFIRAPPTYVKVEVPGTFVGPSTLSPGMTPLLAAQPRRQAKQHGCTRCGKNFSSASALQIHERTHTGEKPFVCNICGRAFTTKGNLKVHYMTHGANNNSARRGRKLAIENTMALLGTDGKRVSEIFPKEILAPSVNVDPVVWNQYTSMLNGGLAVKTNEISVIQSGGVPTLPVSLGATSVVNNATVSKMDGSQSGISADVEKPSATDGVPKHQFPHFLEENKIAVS
Notes: 8-mer, flanks averaged, mean of replicates
Sequence | E-score
TACCGGAA | -0.0384
AGGTTACT | -0.0383
AAGTATCA | 0.129
TATGACCA | 0.22
GACGGGCA | -0.219
CAATTACG | 0.161
AGTTCCCA | -0.0609
ACTGGACT | -0.00364
AGCCTCCG | -0.409
AGATAACA | 0.238
AGTTGCTC | -0.171
GCGGGCCA | -0.329
CGCTGGGC | -0.289
ATAGTTCG | 0.118
AGTAGACT | 0.0627
GATTCCAC | 0.0191
CACACTAA | 0.204
CTATCAAC | 0.129

Study 4 — technique: DHFR PCA, deep sequencing; medium: yeast; added: (+)-ABA 0 µM; baseline: wild-type fitted maximum; direction: higher = stronger binding
Target: ABI1, truncated, D143A, DHFR fusion (Arabidopsis thaliana)
Notes: methotrexate growth selection, single substitutions
Parent: PYL1, truncated, DHFR fusion (Arabidopsis thaliana); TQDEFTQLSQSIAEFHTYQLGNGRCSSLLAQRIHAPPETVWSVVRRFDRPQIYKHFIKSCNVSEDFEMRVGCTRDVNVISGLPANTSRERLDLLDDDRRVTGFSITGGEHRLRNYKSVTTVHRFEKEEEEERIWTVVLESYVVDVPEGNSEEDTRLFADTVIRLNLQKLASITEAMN; partner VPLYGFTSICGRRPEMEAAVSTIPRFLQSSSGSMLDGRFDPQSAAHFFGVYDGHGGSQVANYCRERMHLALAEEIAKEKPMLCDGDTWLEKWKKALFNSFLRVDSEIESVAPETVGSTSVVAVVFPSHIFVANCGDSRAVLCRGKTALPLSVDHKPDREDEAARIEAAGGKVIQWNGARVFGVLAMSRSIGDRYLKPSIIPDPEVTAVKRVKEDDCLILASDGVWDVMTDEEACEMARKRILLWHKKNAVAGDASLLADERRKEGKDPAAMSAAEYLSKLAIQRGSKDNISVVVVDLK
Change | relative binding score [%]
E151M | 20
D92Y | 3.51
N165A | 7.28
V145R | -7.18
R90Y | -2.24
Q31S | -2.5
R46T | 0.596
R111G | 5.84
V118Q | -8.28
R45V | -3.13
V100W | -5.45
F124M | 52.3
M176L | 9.37
S87E | -7.92
V121T | 3.43
H55F | 8.02
T73G | 1.95
R163D | -1.54
D3N | 18.4

Study 5 — technique: RNA Bind-n-Seq; molecule type: RNA; medium: in vitro; tested at: 365 nM; baseline: no-protein control; direction: higher = stronger binding
Target: RNA binding protein fox-1 homolog 2, RRM domain, GST-SBP tag (RBFOX2, Homo sapiens, UniProt O43251-10, residues 100-194)
Notes: natural RNA segment, single round, ends assumed
Shared flanks, not repeated: GGGAGUUCUACAGUCCGACGAUC … UGGAAUUCUCGGGUGCCAA
Residues (chain): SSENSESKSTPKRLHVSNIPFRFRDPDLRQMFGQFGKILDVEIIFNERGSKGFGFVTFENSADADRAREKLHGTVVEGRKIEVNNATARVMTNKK
Sequence | RBNS enrichment (R)
GGGCAAAAAGCUUUAUAUUUAUUUGAUUAUCCAAAAUACAGAUCAAAGUUUAGAUCUACAUUCUUCAUUGUAUUUGCUGUUUCUUAAUUGGGCACACACAACUCCUGGUC | 0.504
UUCAGGGGAAGACUGUGGUCAAGUUAAAAAAAAAAAACAAUAUUAAACAACAUGAAACUGCAGUCUGUUUUUGAAAAUGAGAAUGUCCUAAGUGAUUCAGAAGAGAGGAG | 1.18
AGGAGCAGCAUUAUCCCCAAAGAUAUUACAGGGUAGACACGUUUUAACUGAAAUCAAUCAAGAUAACUUUAUUCAAAGAGCAGCCCGCUUUGUGUGACUAAAAUGAAACA | 0.737
AGCCCUUGAAGUCACCCGGCCCCCAUGCAAGGUGCCCACAUGUGUCCAUCCCAGCGGCUGGUGCAGGGCCUCCAUUCCUGGAGCCCGAGGCACCAGUGUCCUCCCCUCAA | 0.253
UUUCGUUUGUUAAGAAACUGGAUUCUUUUCUCCUAACCAGUGCUUAAUUUGUGUUUUUGGAUUUUCUUUCAGAAGUAGUCAAAUGUCUAUGCUGUUACAUCCAGAAUAUU | 0.735
UCCAACCUGAUUAGUGCAUGGUCAGCCCUCAAUGAAGGCUGAGGCAUCUCUGACUGAGGUGUUUUUGUUUGGUUUUGUUUUUUAAAAUCAUGUAUUUGCUACAAAGUAUU | 2.6
UACCCAUCCUGGUCCUAUGCUGGCAGGAACACACGCGAGUGUCACUGAUUGGCCUCCUUCUGGGAUCCCAGGCUGCUGAGGAAGCUACUGCUACAUCCCUACCCCAAGGG | 0.354
UUCUGCCUACCAUCCAGGAAAACUUGUGCUGGAAUUGCUGAUGGAAACAAUUAAAUAUUUACUAUAAUCAGUGUCUUUUCUUCAUCUGCAAGGAACUUUAGCAGGUGCCU | 0.323
UUAAGUUUUCAUUUUUGAGGGGUAAUCACCUUCAAGUAAAACAGUAAUAGCAAGAGUGAAGGUACUUUGGAACCACUAACACCUCUGCACAGGGCAGUUAGCCAGCUCAA | 0.301
CUAUUUGGUAUGAAGUAGCAAAGCUACCUAGGAAGGUUAAAAAAUUAUGUACAUCAAAGAUAUCCUAGAUGUAGAGACGAUGGUGUCUGGGAUAAAAGGCAGAGUUAGUU | 1.46
GAAAGGGGUGAAGGCUGUGGACCCCAAGACUGGCCGGGAGAUCCCUUACACAUUUGAGGACCGAAUCAACUUUGCCGUGUUCCCAUCCCUGCAGGGGGGCCCCCACAAUC | 0.158
UACUGCCAUAGAAGCUAAAAGCACCCUAGCUUUCUUAGACAAUCCACUUAGCUAUCUGAAACUUGAGGCAUUCCAGACCUGACAUGUUUACAAUGCACCACUGAACUUUU | 1.1

Excerpt of the above (study 2):
Sequence | fitted relative affinity
GACGGAATCGGACTGGGGACGTGCTAG | 0.101 z-score
AACGATATCAGTTTCGAGACGTGCTAG | 3.47 z-score
TTAGAACTGAGTTCCGATTAGTGCTAG | 1.2 z-score
TATGAAATGGAAGTTTAGGGGTGCTAG | -0.394 z-score
GACGGTAGCCTTTTCCTGACGTGCTAG | 2.42 z-score
TTAGGACTGGGACTGGTTTAGTGCTAG | -0.886 z-score
TTAGGTTTCGGGTATCGGCTAGTGCTA | 3.81 z-score
TTAGATATCAGGATCGATTAGTGCTAG | 0.73 z-score
GACGCTTTCGGGACTGGAGACGTGCTA | 1.9 z-score
